Results pooled from the literature.
Protocols differ between the studies behind these lines. ± gives the spread as reported.
Cell line: HeLa

SMILES | assay | setting | how to read | measurement | value
N=C(N)NCCC[C@@H]1NC(=O)[C@H](Cc2csc3ccccc23)NC(=O)[C@@H](Cc2ccccc2)NC(=O)[C@H](Cc2ccccc2)NC(=O)[C@H](CCC(=O)NCCOCCOCC(=O)N[C@@H](CCCCNC(=O)c2ccc3c(c2)C(=O)OC32c3ccc4cc(O)ccc4c3Oc3c2ccc2cc(O)ccc32)C(N)=O)NC(=O)[C@@H](CCCNC(=N)N)NC(=O)[C@H](CCCNC(=N)N)NC(=O)[C@@H](CCCNC(=N)N)NC1=O | – | 2.0 µM, 1% FBS | reference: CPP12 | endosomal escape efficiency | 138 ± 6%
NCCCC[C@H](NC(=O)[C@H](CCCCNC(=O)CCC(=O)Nc1nnc(S(N)(=O)=O)s1)NC(=O)[C@H](Cc1ccccc1)NC(=O)[C@H](Cc1ccccc1)NC(=O)CCCc1ccc2ccc3cccc4ccc1c2c34)C(N)=O | MTT | concentration not given, 24 h, normoxia | – | cytotoxicity | not toxic
CC[C@H](C)[C@@H]1NC(=O)[C@H](C)NC(=O)[C@H](C)NC(=O)[C@H]([C@@H](C)O)NC(=O)[C@H](Cc2ccccc2)NC(=O)[C@@H]2CSSC[C@@H]3NC(=O)[C@H](C(C)C)NC(=O)[C@H](CCCCN)NC(=O)[C@H](CO)NC(=O)[C@H](CCCCN)NC(=O)[C@@H]4CSSC[C@H](NC(=O)[C@H](CO)NC(=O)[C@H](CCC(=O)O)NC(=O)CNC(=O)[C@H](CSSC[C@H](NC(=O)CNC1=O)C(=O)N[C@@H](CO)C(=O)N4)NC(=O)[C@@H]1CCCN1C(=O)[C@H](Cc1ccccc1)NC(=O)CNC(=O)[C@H](CC(N)=O)NC(=O)[C@H](CCCCN)NC(=O)[C@H](Cc1ccc(O)cc1)NC3=O)C(=O)N[C@@H](C(C)C)C(=O)N[C@@H](Cc1ccc(O)cc1)C(=O)N[C@@H](CC(C)C)C(=O)N1CCC[C@H]1C(=O)N2 | resazurin | 24 h | – | CC50 | 1080 ± 40 nM
CCCCCCCCCCCCCC(=O)N[C@@H](CCCCN)C(=O)N[C@@H](CCCCN)C(N)=O | MTS | 100 µM | – | cytotoxicity | toxic
CC[C@H](C)[C@@H]1NC(=O)[C@H](C)NC(=O)[C@H](C)NC(=O)[C@H]([C@@H](C)O)NC(=O)[C@H](Cc2ccccc2)NC(=O)[C@@H]2CSSC[C@@H]3NC(=O)[C@H](C(C)C)NC(=O)[C@H](CCCCN)NC(=O)[C@H](CO)NC(=O)[C@H](CCCCN)NC(=O)[C@@H]4CSSC[C@H](NC(=O)[C@H](CO)NC(=O)[C@H](CCC(=O)O)NC(=O)CNC(=O)[C@H](CSSC[C@H](NC(=O)CNC1=O)C(=O)N[C@@H](CO)C(=O)N4)NC(=O)[C@@H]1CCCN1C(=O)[C@H](C)NC(=O)CNC(=O)[C@H](CC(N)=O)NC(=O)[C@H](CCCCN)NC(=O)[C@H](Cc1ccc(O)cc1)NC3=O)C(=O)N[C@@H](C(C)C)C(=O)N[C@@H](Cc1ccc(O)cc1)C(=O)N[C@@H](CC(C)C)C(=O)N1CCC[C@H]1C(=O)N2 | resazurin | 24 h | – | CC50 | 2850 ± 100 nM
CC(=O)N[C@@H](CC(C)C)C(=O)N[C@@H](CC(C)C)C(=O)N[C@@H](CS)C(=O)N[C@@H](CO)C(=O)N[C@H](C(=O)N1CCC[C@H]1C(=O)N[C@@H](CC(N)=O)C(=O)NCC(=O)N[C@@H](CC(C)C)C(=O)O)[C@@H](C)OP(=O)(O)O | – | 30 µM, 24 h | – | viability | 57%
S=c1n(-c2ccccc2)c2c3ccccc3nc3[n+]2[n]1[Ir-3]12([S]3)([c]3cccc4ccc5ccc[n+]1c5c34)[c]1cccc3ccc4ccc[n+]2c4c13 | ICP-MS | 10 µM, 1 h, together with: endocytic or metabolic inhibitors | – | cellular uptake | decreased
CC[C@H](C)[C@@H]1NC(=O)[C@H](C)NC(=O)[C@H](C)NC(=O)[C@H]([C@@H](C)O)NC(=O)[C@H](Cc2ccccc2)NC(=O)[C@@H]2CSSC[C@@H]3NC(=O)[C@H](C(C)C)NC(=O)[C@H](CCCCN)NC(=O)[C@H](CO)NC(=O)[C@H](CCCCN)NC(=O)[C@@H]4CSSC[C@H](NC(=O)[C@H](CO)NC(=O)[C@H](CCC(=O)O)NC(=O)CNC(=O)[C@H](CSSC[C@H](NC(=O)CNC1=O)C(=O)N[C@@H](CO)C(=O)N4)NC(=O)[C@@H]1CCCN1C(=O)[C@H](Cc1ccccc1)NC(=O)CNC(=O)[C@H](CC(N)=O)NC(=O)[C@H](C)NC(=O)[C@H](Cc1ccc(O)cc1)NC3=O)C(=O)N[C@@H](C(C)C)C(=O)N[C@@H](Cc1ccc(O)cc1)C(=O)N[C@@H](CC(C)C)C(=O)N1CCC[C@H]1C(=O)N2 | resazurin | 24 h | – | CC50 | 1020 ± 30 nM
C[C@@H](NC(=O)[C@H](Cc1ccccc1)NC(=O)[C@@H](CCCNC(=N)N)NC(=O)[C@H](CCCN)NC(=O)[C@@H]1CNC(=O)c2cc3cc(c2)C(=O)N[C@H](Cc2ccc4ccccc4c2)C(=O)N[C@@H](CO)C(=O)N[C@@H](CC(N)=O)C(=O)N[C@H](Cc2ccc4ccccc4c2)C(=O)N[C@@H](c2ccccc2)C(=O)N[C@@H](CCCCNC3=O)C(=O)N[C@H](Cc2ccccc2)C(=O)N[C@@H](CCC(N)=O)C(=O)N[C@H](CCCNC(=N)N)C(=O)N[C@@H](CCCNC(=N)N)C(=O)N1)C(=O)NCCOCCOCC(=O)NCCOCCOCC(=O)N[C@@H](CCCCNC(=O)c1ccc2c(c1)C(=O)OC21c2ccc(O)cc2Oc2cc(O)ccc21)C(N)=O | flow cytometry | 5 µM, 2 h, 1% FBS | reference: CPP12 | cellular uptake | 226%
CC[C@H](C)[C@@H]([C@@H](CC(=O)N1CCC[C@H]1[C@H](OC)[C@@H](C)C(=O)N[C@@H](Cc1ccccc1)C(=O)O)OC)N(C)C(=O)[C@@H](NC(=O)[C@H](C(C)C)N(C)C(=O)CCSSC[C@H](NC(=O)[C@@H](NC(=O)CNC(=O)[C@H](CCC(=O)O)NC(=O)[C@H](CC(=O)O)NC(=O)[C@H](C)NC(=O)[C@H](CC(=O)O)NC(=O)[C@@H](NC(=O)[C@H](CC(C)C)NC(=O)[C@H](CC(C)C)NC(=O)[C@H](C)NC(=O)[C@H](CC(C)C)NC(=O)[C@H](CC(=O)O)NC(=O)[C@H](CC(C)C)NC(=O)[C@H](CC(C)C)NC(=O)[C@H](CC(C)C)NC(=O)[C@H](CC(C)C)NC(=O)[C@@H]1CCCN1C(=O)[C@@H](NC(=O)[C@@H](NC(=O)[C@H](Cc1ccccc1)NC(=O)[C@H](CC(C)C)NC(=O)[C@H](Cc1c[nH]c2ccccc12)NC(=O)[C@H](CC(=O)O)NC(=O)[C@H](C)NC(=O)[C@H](Cc1ccc(O)cc1)NC(=O)[C@H](CCCNC(=N)N)NC(=O)[C@H](C)NC(=O)[C@H](Cc1c[nH]c2ccccc12)NC(=O)[C@H](Cc1ccc(O)cc1)NC(=O)[C@@H](NC(=O)[C@@H]1CCCN1C(=O)[C@H](CC(N)=O)NC(=O)[C@H](CCC(N)=O)NC(=O)[C@H](CCC(=O)O)NC(=O)CNC(=O)CN)[C@@H](C)CC)[C@@H](C)O)[C@@H](C)O)C(C)C)[C@@H](C)O)C(=O)NCC(N)=O)C(C)C | MTT | 0.53 µM, pH 6.0, without Ca2+ | – | cytotoxicity | 23%
C[C@H](NC(=O)[C@H](CCCNC(=N)N)NC(=O)[C@H](CCC(=O)O)NC(=O)[C@H](CCCNC(=N)N)NC(=O)[C@H](CCCNC(=N)N)NC(=O)[C@@H](NC(=O)[C@H](CCCNC(=N)N)NC(=O)[C@H](C)NC(=O)[C@H](CCCNC(=N)N)NC(=O)[C@H](CCC(=O)O)NC(=O)[C@@H](N)CCCNC(=N)N)[C@@H](C)O)C(=O)N[C@@H](CCCNC(=N)N)C(=O)N[C@H](C(=O)N[C@@H](CCCNC(=N)N)C(=O)N[C@@H](CCC(=O)O)C(=O)N[C@@H](CCCNC(=N)N)C(=O)N[C@@H](C)C(=O)N[C@@H](CCCNC(=N)N)C(=O)N[C@H](C(=O)N[C@@H](CCCNC(=N)N)C(=O)O)[C@@H](C)O)[C@@H](C)O | MTT | up to 100 µM, 24 h | – | cytotoxicity | not toxic
CC[C@H](C)[C@@H]1NC(=O)[C@H](C)NC(=O)[C@H](C)NC(=O)[C@H]([C@@H](C)O)NC(=O)[C@H](Cc2ccccc2)NC(=O)[C@@H]2CSSC[C@@H]3NC(=O)[C@H](C(C)C)NC(=O)[C@H](CCCCN)NC(=O)[C@H](CO)NC(=O)[C@H](CCCCN)NC(=O)[C@@H]4CSSC[C@H](NC(=O)[C@H](CO)NC(=O)[C@H](CCC(=O)O)NC(=O)CNC(=O)[C@H](CSSC[C@H](NC(=O)CNC1=O)C(=O)N[C@@H](CO)C(=O)N4)NC(=O)[C@@H]1CCCN1C(=O)[C@H](Cc1ccccc1)NC(=O)CNC(=O)[C@H](CC(N)=O)NC(=O)[C@H](CCCCN)NC(=O)[C@H](C)NC3=O)C(=O)N[C@@H](C(C)C)C(=O)N[C@@H](Cc1ccc(O)cc1)C(=O)N[C@@H](CC(C)C)C(=O)N1CCC[C@H]1C(=O)N2 | resazurin | 24 h | – | CC50 | 1830 ± 110 nM
CC[C@H](C)[C@H](NC(=O)[C@H](CC(C)C)NC(=O)[C@@H](NC(=O)[C@@H](N)CC(C)C)[C@@H](C)CC)C(=O)N[C@@H](CC(C)C)C(=O)N[C@@H](C)C(=O)N[C@@H](C)C(=O)N[C@@H](CCCCN)C(=O)N[C@@H](CC(C)C)C(=O)N[C@@H](C)C(=O)N[C@@H](CCCCN)C(=O)N[C@@H](C)C(=O)N[C@@H](CC(C)C)C(=O)N[C@@H](CCCCN)C(=O)N[C@@H](CCCCN)C(=O)N[C@@H](CCC(=O)O)C(=O)N[C@@H](C)C(=O)N[C@@H](CCCCN)C(=O)N[C@@H](C)C(=O)N[C@@H](CC(C)C)C(=O)N[C@@H](CCCCN)C(N)=O | cytotoxicity, MTT | 1 h, 37 °C | – | IC50 | 31100 nM
CC[C@H](C)[C@@H]1NC(=O)[C@H](C)NC(=O)[C@H](C)NC(=O)[C@H]([C@@H](C)O)NC(=O)[C@H](Cc2ccccc2)NC(=O)[C@@H]2CSSC[C@@H]3NC(=O)[C@H](C(C)C)NC(=O)[C@H](CCCCN)NC(=O)[C@H](CO)NC(=O)[C@H](CCCCN)NC(=O)[C@@H]4CSSC[C@H](NC(=O)[C@H](CO)NC(=O)[C@H](CCC(=O)O)NC(=O)CNC(=O)[C@H](CSSC[C@H](NC(=O)CNC1=O)C(=O)N[C@@H](CO)C(=O)N4)NC(=O)[C@@H]1CCCN1C(=O)[C@H](Cc1ccccc1)NC(=O)CNC(=O)[C@H](CC(N)=O)NC(=O)[C@H](CCCCN)NC(=O)[C@H](Cc1ccc(O)cc1)NC3=O)C(=O)N[C@@H](C(C)C)C(=O)N[C@@H](Cc1ccc(O)cc1)C(=O)N[C@@H]([C@@H](C)CC)C(=O)N1CCC[C@H]1C(=O)N2 | resazurin | 24 h | – | CC50 | 920 ± 70 nM
CC=C(C)C(=O)OC1C(O)C2OC(COC(=O)CCCCCCCCCC(CCCCC)OC3OC(C)C(OC(C)=O)C(O)C3O2)C1OC(=O)C=Cc1ccccc1 (stereo not shown) | cytotoxicity | – | – | IC50 | 14.9 nM
O[C@H](COc1ccccc1)Cn1c2ccc(Br)cc2c2cc(Br)ccc21 | CellTiter-Glo | 48 h | – | GI50 | 10300 nM

Excerpt of the above:
SMILES | assay | setting | how to read | measurement | value
NCCCC[C@H](NC(=O)[C@H](CCCCNC(=O)CCC(=O)Nc1nnc(S(N)(=O)=O)s1)NC(=O)[C@H](Cc1ccccc1)NC(=O)[C@H](Cc1ccccc1)NC(=O)CCCc1ccc2ccc3cccc4ccc1c2c34)C(N)=O | MTT | concentration not given, 24 h, normoxia | – | cytotoxicity | not toxic
